# Measured values gathered from unrelated publications.
# Compare with care: the assays were run in different laboratories. ± gives the spread as reported.
Structure (SMILES),assay,test system,setting,how to read,endpoint,result
COc1cc(/C=C/C(=O)NCCCCCC(=O)N[C@@H](CCCNC(=N)N)C(=O)N[C@@H](CCCNC(=N)N)C(=O)N[C@@H](Cc2c[nH]c3ccccc23)C(=O)N[C@@H](CCC(N)=O)C(=O)N[C@@H](Cc2c[nH]c3ccccc23)C(=O)N[C@@H](CCCNC(=N)N)C(N)=O)ccc1O,"RP-HPLC, C18 column",,,higher is more hydrophobic,retention time,5.5 min
C=C1CC[C@H](OCCCNC(=O)CCOCCOCCOCCOCCOCCOCCOCCOCCOCCOCCOCCOCCOCCOCCOCCOCCOCCOCCOCCOCCOCCOCCOCCOCCOCCOCCOCCOCCOCCOCCOCCOCCOCCOCCOCCOCCNC(=O)CCN2C(=O)CC(SC[C@H](NC(=O)[C@H](Cc3ccccc3)NC(=O)[C@H](CC(N)=O)NC(=O)[C@H](Cc3c[nH]cn3)NC(=O)[C@@H](NC(=O)[C@H](CC(=O)O)NC(=O)[C@H](CCC(N)=O)NC(=O)[C@H](CC(C)C)NC(=O)[C@H](CCCCN)NC(=O)[C@H](CCCCN)NC(=O)[C@H](CCCNC(=N)N)NC(=O)[C@H](CC(C)C)NC(=O)[C@H](Cc3c[nH]c4ccccc34)NC(=O)[C@H](CCC(=O)O)NC(=O)[C@@H](NC(=O)[C@H](CCCNC(=N)N)NC(=O)[C@H](CCC(=O)O)NC(=O)[C@H](CCSC)NC(=O)[C@H](CO)NC(=O)[C@H](CC(N)=O)NC(=O)[C@H](CC(C)C)NC(=O)[C@H](Cc3c[nH]cn3)NC(=O)[C@H](CCCCN)NC(=O)CNC(=O)[C@H](CC(C)C)NC(=O)[C@H](CC(N)=O)NC(=O)[C@H](Cc3c[nH]cn3)NC(=O)[C@H](CCSC)NC(=O)[C@H](CC(C)C)NC(=O)[C@H](CCC(N)=O)NC(=O)[C@@H](NC(=O)[C@H](CCC(=O)O)NC(=O)[C@H](CO)NC(=O)[C@@H](NC(=O)[C@@H](N)CO)C(C)C)[C@@H](C)CC)C(C)C)C(C)C)C(N)=O)C2=O)C/C1=C/C=C1\CCC[C@]2(C)[C@@H]([C@H](C)CCCC(C)(C)O)CC[C@@H]12 (stereo partly drawn),,Sprague Dawley rat,"subcutaneous, 10 µg/kg daily, 89 days",reference: 1 µg/kg dose,dose-normalized Cmax,1.34
CCCC[C@H](NC(=O)CCCCCCCNC(=O)CN1CCN(CC(=O)O)CCN(CC(=O)O)CC1)C(=O)N[C@H]1CC(=O)NCCCC[C@@H](C(N)=O)NC(=O)[C@H](Cc2c[nH]c3ccccc23)NC(=O)[C@H](CCCNC(=N)N)NC(=O)[C@@H](Cc2ccccc2)NC(=O)[C@H](Cc2c[nH]cn2)NC1=O [copper-64 labelled],,"C57 mice, brain","intravenous, 0.37 MBq, 24 h",,tissue uptake,0.01 ± 0.01 %ID/g
N=C(N)NCCC[C@@H]1NC(=O)[C@H](CCCCNC(=O)CCC(C(=O)O)N2CCCN3CCN(CCCN(CC(=O)O)CC3)CC2)NC(=O)[C@@H](Cc2ccc(O)cc2)NC(=O)[C@H](CC(=O)O)NC(=O)CNC1=O (stereo partly drawn) [copper-64 labelled],,"SCID mouse, PC-3 xenograft, tumour","iv, dose not given, 1 h",,tumour uptake,1.95 ± 0.1 %ID/g
CCn1cc(C(=O)NCCCCCC(=O)N[C@@H](CCCNC(=N)N)C(=O)N[C@@H](CC(C)C)C(=O)N[C@@H](CC(C)C)C(=O)N[C@@H](CCCNC(=N)N)C(=O)N[C@@H](CCCNC(=N)N)C(=O)N[C@@H](CC(C)C)C(=O)N[C@@H](CC(C)C)C(=O)N[C@@H](CCCNC(=N)N)C(N)=O)c(=O)c2cc3c(cc21)OCO3,"RP-HPLC, C18 column",,,higher is more hydrophobic,retention time,7.2 min
CCCC[C@H](NC(=O)CNC(=O)CNC(=O)CN1CCN(CC(=O)O)CCN(CC(=O)O)CCN(CC(=O)O)CC1)C(=O)N[C@H]1CC(=O)NCCCC[C@@H](C(N)=O)NC(=O)[C@H](Cc2c[nH]c3ccccc23)NC(=O)[C@H](CCCNC(=N)N)NC(=O)[C@@H](Cc2ccccc2)NC(=O)[C@H](Cc2c[nH]cn2)NC1=O [lutetium-177 labelled],,"C57 mouse, female, skin","intravenous, 0.037 MBq, 2 h",,tissue uptake,0.48 ± 0.06 %ID/g
CC(C)C[C@H](NC(=O)C[C@H](O)[C@H](CC(C)C)NC(=O)[C@H](Cc1c[nH]cn1)NC(=O)CNC(=O)[C@@H](NC(=O)[C@H](C)NC(=O)[C@H](Cc1c[nH]c2ccccc12)NC(=O)[C@H](CCC(N)=O)NC(=O)[C@@H](Cc1ccccc1)NC(=O)CCOCCOCCOCCNC(=O)CN1CCN(CC(=O)O)CCN(CC(=O)O)CC1)C(C)C)C(N)=O [gallium-68 labelled],microPET imaging,"mouse PC-3 xenograft, PC-3 tumour","intravenous, 3.7 MBq, 15 min",,maximum tumour uptake,4.96 ± 0.87 %ID/g
CCCC[C@H](NC(=O)COCCOCCNC(=O)CN1CCN(CC(=O)O)CCN(CC(=O)O)CC1)C(=O)N[C@H]1CC(=O)NCCCC[C@@H](C(N)=O)NC(=O)[C@H](Cc2c[nH]c3ccccc23)NC(=O)[C@H](CCCNC(=N)N)NC(=O)[C@@H](Cc2ccccc2)NC(=O)[C@H](Cc2c[nH]cn2)NC1=O [copper-64 labelled],,"C57 mice, spleen","intravenous, 0.37 MBq, 24 h",,tissue uptake,0.36 ± 0.17 %ID/g
N=C(N)NCCC[C@@H]1NC(=O)[C@H](CCCCNC(=O)CC[C@H](NC(=O)CC[C@H](NC(=O)CN2CCN(CC(=O)O)CCN(CC(=O)O)CCN(CC(=O)O)CC2)C(=O)N[C@@H](CCC(=O)NCCCC[C@@H]2NC(=O)[C@@H](Cc3ccccc3)NC(=O)[C@H](CC(=O)O)NC(=O)CNC(=O)[C@H](CCCNC(=N)N)NC2=O)C(=O)NCCCC[C@@H]2NC(=O)[C@@H](Cc3ccccc3)NC(=O)[C@H](CC(=O)O)NC(=O)CNC(=O)[C@H](CCCNC(=N)N)NC2=O)C(=O)NCCCC[C@@H]2NC(=O)[C@@H](Cc3ccccc3)NC(=O)[C@H](CC(=O)O)NC(=O)CNC(=O)[C@H](CCCNC(=N)N)NC2=O)NC(=O)[C@@H](Cc2ccccc2)NC(=O)[C@H](CC(=O)O)NC(=O)CNC1=O [indium-111 labelled],,"female athymic nu/nu mice, spleen","intravenous, 111 kBq, 1 h",,tissue uptake,2.4 ± 0.51 %ID/g

# For quick reference, copied from above:
Structure (SMILES),assay,test system,setting,how to read,endpoint,result
CCCC[C@H](NC(=O)COCCOCCNC(=O)CN1CCN(CC(=O)O)CCN(CC(=O)O)CC1)C(=O)N[C@H]1CC(=O)NCCCC[C@@H](C(N)=O)NC(=O)[C@H](Cc2c[nH]c3ccccc23)NC(=O)[C@H](CCCNC(=N)N)NC(=O)[C@@H](Cc2ccccc2)NC(=O)[C@H](Cc2c[nH]cn2)NC1=O [copper-64 labelled],,"C57 mice, spleen","intravenous, 0.37 MBq, 24 h",,tissue uptake,0.36 ± 0.17 %ID/g
